Published values from different studies.
Lines come from different studies, so protocols differ. “And” joins repeats or separate records; there may be more than shown. Numbers after ± are the reported error.
EZH2: Histone-lysine N-methyltransferase EZH2 (EZH2, Homo sapiens, UniProt Q15910)
STING1 H232R: Stimulator of interferon genes protein (STING1, Homo sapiens, UniProt Q86WV6, H232R)
MAPK8: Mitogen-activated protein kinase 8 (MAPK8, Homo sapiens, UniProt P45983)
Ecdysone receptor: Ecdysone receptor (Aedes albopictus, UniProt Q9U3Y4)

| Structure (SMILES) | tested on | test | system | setting | how to read | measurement | result |
| --- | --- | --- | --- | --- | --- | --- | --- |
| COC1CN([C@H]2CC[C@H]([C@@]3(C)Oc4c(Cl)cc(C(=O)NCc5c(SC)cc(C)[nH]c5=O)c(C)c4O3)CC2)C1 | EZH2 | binding | – | activated PRC2 with H3K27me3 peptide | – | residence time | 138000 min |
| Cc1cn(CC(=O)N(CCNC(=O)CN(CCNC(=O)CN(CCNC(=O)CN(CCNC(=O)CN(CCNC(=O)CN(CCNC(=O)CN(CCNC(=O)CN(CCN)C(=O)Cn2cnc3c(=O)[nH]c(N)nc32)C(=O)Cn2cnc3c(N)ncnc32)C(=O)Cn2cc(C)c(=O)[nH]c2=O)C(=O)Cn2cnc3c(=O)[nH]c(N)nc32)C(=O)Cn2cc(C)c(=O)[nH]c2=O)C(=O)Cn2cnc3c(=O)[nH]c(N)nc32)C(=O)Cn2cnc3c(N)ncnc32)CC(=O)NCCN(CC(=O)NCCOCCOCC(N)=O)C(=O)Cn2cnc3c(N)ncnc32)c(=O)[nH]c1=O | complementary RNA | duplex formation, UV melting curve fit | PBS | 1 µM | – | ΔS | -163.4 ± 0.1 cal/mol/K |
| CCn1cc(-c2cccc(C(F)(F)F)c2)c2sc(C(=N)NC3CCS(=O)(=O)CC3)cc2c1=O | Bromodomain testis-specific protein, BD2 (BRDT, Homo sapiens, UniProt Q58F21) | – | – | – | – | ΔTm | 2.4 °C |
| Fc1ccc(Nc2nc(NC3CCCCC3)c3cc(Br)ccc3n2)cc1F | ADRB2 (Homo sapiens, UniProt P07550, V126A) | β-arrestin2 recruitment, antagonist, BRET | – | mutant V126A | relative to: isoprenaline maximal response | maximal inhibition | 11.6% |
| O=C1CCC(N2Cc3c(NC(=O)OCc4cc(C(=O)O)ccc4OP(=O)(O)O)cccc3C2=O)C(=O)N1 (stereo not drawn) | Alkaline phosphatase, placental type (Homo sapiens, UniProt P05187) | substrate | – | 100 µM, pH 7.6, 37 °C | – | drug formation rate | 2.24 pmol/min |
| CC(C)[C@@H]1NC(=O)[C@H](Cc2ccccc2)NC(=O)CSC[C@@H](C(N)=O)NC(=O)[C@H](CCC(=O)O)NC(=O)[C@H](CO)NC(=O)[C@H](Cc2c[nH]c3cccc(Cl)c23)NC(=O)[C@H](C2CCCCC2)NC(=O)[C@H](C(C)C)NC(=O)[C@H](Cc2ccc(O)cc2)NC(=O)[C@H](CC(=O)O)NC(=O)[C@H](Cc2c[nH]c3ccccc23)NC(=O)[C@H](Cc2ccc(N)nc2)NC(=O)[C@H](Cc2c[nH]c3ccc(Cl)cc23)NC(=O)[C@H](CCC(=O)O)NC1=O | Interleukin-1 receptor-like 2 (IL1RL2, Homo sapiens, UniProt Q9HB29) | reporter gene (SEAP), inhibitor, HEK-Blue IL-36R reporter | HEK-Blue IL-36R cells | 0.41 µM, 6 h, together with: IL-36β 30 ng/mL | – | remaining activity | 95% |
| CC(C)C[C@@H]1NC(=O)[C@H](Cc2ccccc2)NC(=O)[C@H](CO)NC(=O)[C@H](Cc2ccccc2)NC(=O)CSC[C@@H](C(=O)N(C)[C@@H](Cc2ccccc2)C(N)=O)NC(=O)[C@H](Cc2c[nH]c3ccccc23)NC(=O)[C@H](Cc2c[nH]cn2)NC(=O)[C@H](Cc2ccc(O)cc2)NC1=O | STING1 H232R | thermal stability, DSF | – | 50 µM | – | ΔTm | 7.75 °C |
| COC(=O)[C@@]1(Cc2ccccc2)C=C(C(=O)OC(C)(C)C)C(=O)CC1 | MAPK8 | D-peptide binding, inhibitor, FP peptide displacement | – | 1000 µM | lower is stronger displacement | fraction bound | -0.0646 |
| Cc1cc(=O)oc2cc(NC(=O)CCCCCCC(=O)NO)ccc12 | HDAC8 (Homo sapiens, UniProt Q9BY41) | ITC | Tris-HCl buffer | 283 K | – | TΔS° | 4.26 kcal/mol |
| CC(C)Oc1cc(Cl)ccc1CNc1cc(-c2ccccc2)nc2ncnn12 | GPR3 (Homo sapiens, UniProt P46089, V155A) | cAMP level, cAMP GloSensor | – | 1 nM | higher = more cAMP | cAMP luminescence | 32300 a.u. and 26900 a.u. and 24100 a.u. and 30300 a.u. |
| CC(C)C[C@@H]1NC(=O)[C@H](Cc2ccccc2)NC(=O)CSC[C@@H](C(=O)NCC(N)=O)NC(=O)[C@H](C(C)C)NC(=O)[C@H](Cc2ccccc2)NC(=O)[C@H](Cc2ccc(O)cc2)NC(=O)[C@H](C(C)C)NC(=O)[C@H](CC(=O)O)NC(=O)[C@H](Cc2ccccc2)NC(=O)[C@H](CCCNC(=N)N)NC(=O)[C@H](Cc2ccccc2)N(C)C(=O)[C@H](C)NC(=O)[C@H](Cc2ccccc2)NC(=O)[C@H](C(C)C)NC1=O | STING1 H232R | thermal stability, DSF | – | 50 µM | – | ΔTm | 0.1 °C |
| Cc1cc(C)cc(COc2cc3c(cc2OCc2cc(C)cc(C)c2)C2CC(O)(Cc4cn(CCOCCOCCNC(=O)CCCCC5SCC6NC(=O)NC65)nn4)CC(C)N2CC3)c1 (stereo not drawn) | Non-selective voltage-gated ion channel VDAC2 (Homo sapiens, UniProt P45880) | biotinylated probe pull-down, refers to: VDAC2 | – | 10 µM probe | relative to: heavy over light | SILAC ratio | 1.93 |
| CSc1cc(C)[nH]c(=O)c1CNC(=O)c1c(C)n(C(C)C2CCC(NC3(C)COC3)CC2)c2ccccc12 (stereo not drawn) | EZH2 | enzyme activity | – | – | – | residence time | 2820 min |
| CCCCCC(O)/C=C/C=O (stereo not drawn) | Myosin regulatory light chain 12B (MYL12B, Homo sapiens, UniProt O14950) | competitive isoTOP-ABPP, refers to: MRLC2 cysteine peptide | Ramos soluble proteome | 100 µM, together with: iodoacetamide probe | relative to: DMSO over compound-treated, higher = stronger cysteine blockade | isoTOP-ABPP competition ratio | 2 |
| Cc1ncsc1-c1ccc(C(C)NC(=O)C2CC(O)CN2C(=O)C(NC(=O)CCCCCCCCCCN2CCCC(Nc3ncc(Cl)c(Nc4ccccc4S(=O)(=O)C(C)C)n3)C2)C(C)(C)C)cc1 (stereo not drawn) | 22Rv1 | RNA-seq, refers to: MTHFR mRNA | – | concentration not given | relative to: DMSO | log2 fold change | -1.33 |
| Cc1ccc(-c2c(/C=C(\C#N)C(=O)NC(C)C)n(CCCO)c3ncnc(N)c23)cc1 | Tyrosine-protein kinase ABL1, phosphorylated (ABL1, Homo sapiens, UniProt P00519, T315I) | cell-free assay, competition with immobilised ligand | – | 1 µM | – | remaining binding | 100% |
| CCCCCCCC/C=C\CCCCCCCC(=O)OCC(O)COP(=O)(O)O (stereo not drawn) | LPAR1 (Homo sapiens, UniProt Q92633) | G-protein dissociation, agonist, NanoBiT | HEK-293T | 10 pM, wild-type receptor | relative to: baseline luminescence | fold change | 1 and 0.999 and 1.01 and 0.986 and 0.993 |
| COc1cc(Nc2nccc(-c3cnn4nc(OC)ccc34)n2)cc(C(F)(F)F)c1 | LRRK2 (Homo sapiens, UniProt Q5S007) | binding, competition with immobilised ligand | – | 1 µM | – | remaining binding | 71% |
| CC(=O)N1c2ccc(-c3ccc(CNC(=O)c4cn5cc(-c6cnc(N)nc6)nc(N6CCOCC6)c5n4)cc3)cc2CC[C@@H]1C | Bromodomain-containing protein 3, BD2 (BRD3, Homo sapiens, UniProt Q15059) | binding, competition with immobilised ligand | – | 10 µM | – | remaining binding | 0% |
| Cc1ncsc1-c1ccc(CNC(=O)[C@@H]2C[C@@H](O)CN2C(=O)[C@@H](NC(=O)COCC(C)(COCCOCCOCCNC(=O)C[C@@H]2N=C(c3ccc(Cl)cc3)c3c(sc(C)c3C)-n3c(C)nnc32)COCCOCCOCCNC(=O)C[C@@H]2N=C(c3ccc(Cl)cc3)c3c(sc(C)c3C)-n3c(C)nnc32)C(C)(C)C)cc1 | von Hippel-Lindau disease tumor suppressor, with Elongin B/C (VHL, Homo sapiens, UniProt P40337) | binding, SPR multi-cycle kinetics | – | binary complex VCB | – | % Rmax | 52 ± 3% |
| COc1ccccc1-c1ccncc1C(=O)Nc1nnc(OCc2ccc(Cl)cc2)s1 | Bifunctional 3'-5' exonuclease/ATP-dependent helicase WRN, residues 500-946 (WRN, Homo sapiens, UniProt Q14191) | ATPase activity, ADP-Glo | – | 3.8 µM | relative to: 0 µM cpd | remaining activity | 80% |
| CCOc1ccc(C(=O)N2c3ccc(F)cc3[C@@H](Nc3ccccc3)C[C@H]2C)cc1 | Ecdysone receptor | ligand binding, inhibitor | intact cells | together with: [3H]ponasterone A | direction not given | pIC50 Z-score | 0.39 |
| O=C(O)[C@@H]1O[C@@H](O[C@H]2[C@H](O)[C@H](O)[C@H](O[C@H]3[C@H](O)[C@H](O)[C@H](O[C@H]4[C@H](O)[C@H](O)[C@H](O)O[C@H]4C(=O)O)O[C@H]3C(=O)O)O[C@H]2C(=O)O)[C@@H](O)[C@@H](O)[C@@H]1O | Beta-lactoglobulin (LGB, Bos taurus, UniProt P02754, A134V/G80D) | isothermal titration calorimetry | – | pH 4.00, 37 °C, 50 mM KH2PO4 | – | -TΔS | 0.239 kcal/mol |
| O=C1N(c2cccc(CN3CCN(Cc4ccc(Br)cc4)CC3)c2)C(=O)C12CCCCC2 | Dipeptidyl peptidase 8 (Homo sapiens, UniProt Q6V1X1) | enzyme activity, inhibitor | – | 5 µM | – | activity vs control | 7.9% |
| O=C1c2sc(-c3ccc(N4CCC(F)C4)nc3F)nc2CCN1c1cccnc1 (stereo not drawn) | TAR DNA-binding protein 43, aggregated (TARDBP, Homo sapiens, UniProt Q13148) | radioligand binding | human, FTLD-TDP type A insoluble extract | 200 nM | – | specific binding | 4.13 nM and 5.33 nM |
| CN(C)c1ccc(-n2cc(COC(=O)[C@@]3(C)C=C(C(=O)OC(C)(C)C)C(=O)CC3)nn2)cc1 | MAPK8 | D-peptide binding, inhibitor, FP peptide displacement | – | 25 µM | lower is stronger displacement | fraction bound | 0.799 |
| CCCCCc1ccc(C(=O)N2c3ccc(F)cc3[C@@H](Nc3ccccc3)C[C@H]2C)cc1 | Ecdysone receptor | ligand binding, inhibitor | intact cells | together with: [3H]ponasterone A | direction not given | pIC50 Z-score | -1.67 |
| CC(=O)C12NC(C)(C)CC1(C)C(=O)C1=C2c2c(c3c4n2C(C)(C)CC2=C4C4(CC(C)(C)NC(C)(C4)C2=O)CC3(C)C)C(=O)C(C)(C)N1 (single isomer, unassigned; (+)) | P2X purinoceptor 7 (P2RX7, Homo sapiens, UniProt Q99572) | ion current, agonist, whole-cell patch clamp | HEK293T | 10 µM | – | activation | 1.27% |
| N=C(N)NCCC[C@H](NC(=O)[C@@H]1CCCN1C(=O)[C@H](CCCNC(=N)N)NC(=O)[C@@H]1CCCN1C(=O)[C@H](CCCNC(=N)N)NC(=O)[C@@H]1CCCN1C(=O)[C@H](CCCNC(=N)N)NC(=O)[C@@H]1CCCN1C(=O)[C@H](CCCNC(=N)N)NC(=O)[C@@H]1CCCN1C(=O)[C@H](CCCNC(=N)N)NC(=O)[C@@H]1CCCN1C(=O)[C@H](CCCNC(=N)N)NC(=O)[C@@H]1CCCN1C(=O)[C@H](CCCNC(=N)N)NC(=O)[C@@H]1CCCN1C(=O)[C@H](CCCNC(=N)N)NC(=O)[C@@H]1CCCN1C(=O)[C@H](CCCNC(=N)N)NC(=O)[C@@H]1CCCN1C(=O)[C@H](CCCNC(=N)N)NC(=O)[C@@H]1CCCN1C(=O)[C@H](CCCNC(=N)N)NC(=O)[C@@H]1CCCN1C(=O)[C@H](CCCNC(=N)N)NC(=O)[C@@H]1CCCN1C(=O)[C@H](CCCNC(=N)N)NC(=O)[C@@H]1CCCN1C(=O)[C@H](CCCNC(=N)N)NC(=O)[C@@H]1CCCN1C(=O)[C@H](CCCNC(=N)N)NC(=O)[C@@H]1CCCN1C(=O)[C@H](CCCNC(=N)N)NC(=O)[C@@H]1CCCN1C(=O)[C@H](CCCNC(=N)N)NC(=O)[C@@H]1CCCN1C(=O)[C@H](CCCNC(=N)N)NC(=O)[C@@H]1CCCN1C(=O)[C@H](CCCNC(=N)N)NC(=O)[C@@H]1CCCN1C(=O)[C@H](CCCNC(=N)N)NC(=O)[C@@H]1CCCN1C(=O)[C@H](CCCNC(=N)N)NC(=O)[C@@H]1CCCN1C(=O)[C@H](CCCNC(=N)N)NC(=O)[C@@H]1CCCN1C(=O)[C@H](Cc1ccc(O)cc1)NC(=O)[C@H](CO)NC(=O)CN)C(=O)O | Nucleophosmin (NPM1, Homo sapiens, UniProt P06748) | SANS Guinier analysis | – | 0.5 molar excess over NPM1, 25 °C | – | radius of gyration | 68.3 ± 3.55 Å |
| CCCCCCCCCCCCC/C=C/C=O | KPNB1 (Homo sapiens, UniProt Q14974) | competitive isoTOP-ABPP | Ramos soluble proteome | 100 µM, together with: iodoacetamide probe | relative to: DMSO over compound-treated, higher = stronger cysteine blockade | isoTOP-ABPP competition ratio | 1 |

Excerpt of the above:
| Structure (SMILES) | tested on | test | system | setting | how to read | measurement | result |
| --- | --- | --- | --- | --- | --- | --- | --- |
| CCCCCc1ccc(C(=O)N2c3ccc(F)cc3[C@@H](Nc3ccccc3)C[C@H]2C)cc1 | Ecdysone receptor | ligand binding, inhibitor | intact cells | together with: [3H]ponasterone A | direction not given | pIC50 Z-score | -1.67 |
| CC(=O)C12NC(C)(C)CC1(C)C(=O)C1=C2c2c(c3c4n2C(C)(C)CC2=C4C4(CC(C)(C)NC(C)(C4)C2=O)CC3(C)C)C(=O)C(C)(C)N1 (single isomer, unassigned; (+)) | P2X purinoceptor 7 (P2RX7, Homo sapiens, UniProt Q99572) | ion current, agonist, whole-cell patch clamp | HEK293T | 10 µM | – | activation | 1.27% |
| CC(C)Oc1cc(Cl)ccc1CNc1cc(-c2ccccc2)nc2ncnn12 | GPR3 (Homo sapiens, UniProt P46089, V155A) | cAMP level, cAMP GloSensor | – | 1 nM | higher = more cAMP | cAMP luminescence | 32300 a.u. and 26900 a.u. and 24100 a.u. and 30300 a.u. |
